Assay results collected from several papers.
Parts stem from different laboratories: compare values within a part only. Several values in a cell are separate wells, animals, samples, runs or records.

Sample 1 — observed: enzyme activity; action: inhibitor; tested at: 10 µM
Target: Calcium/calmodulin-dependent protein kinase type II subunit alpha (CAMK2A, Homo sapiens, UniProt Q9UQM7)
Sequence of UniProt Q9UQM7 (whole entry, looked up): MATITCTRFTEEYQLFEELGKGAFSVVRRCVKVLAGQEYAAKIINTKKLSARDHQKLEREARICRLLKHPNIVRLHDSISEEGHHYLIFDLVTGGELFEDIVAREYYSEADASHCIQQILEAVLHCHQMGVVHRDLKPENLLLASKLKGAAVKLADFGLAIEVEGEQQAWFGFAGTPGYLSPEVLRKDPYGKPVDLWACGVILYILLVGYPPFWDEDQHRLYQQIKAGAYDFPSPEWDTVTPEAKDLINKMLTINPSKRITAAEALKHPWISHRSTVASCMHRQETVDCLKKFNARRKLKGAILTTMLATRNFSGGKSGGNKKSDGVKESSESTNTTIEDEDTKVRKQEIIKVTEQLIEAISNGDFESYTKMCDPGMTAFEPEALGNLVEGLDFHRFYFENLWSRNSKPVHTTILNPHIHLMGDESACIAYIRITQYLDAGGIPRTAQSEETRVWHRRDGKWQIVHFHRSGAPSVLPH
| SMILES | inhibition [%] |
| --- | --- |
| CSC(=O)OCC1=C[C@@H]2OC(=O)C3=CO[C@@H](O[C@@H]4O[C@H](CO)[C@@H](O)[C@H](O)[C@H]4O)[C@H]1[C@@H]32 | -5 |
| O=C1C(CC[S+]([O-])c2ccccc2)C(=O)N(c2ccccc2)N1c1ccccc1 (stereo not drawn) | -14 |
| CC1(C)CCC[C@](C)([C@H]2CC[C@]3(C)[C@@H]2[C@H](O)C[C@@H]2[C@@]4(C)CC[C@H](O)C(C)(C)[C@@H]4CC[C@]23C)O1 | -1 |
| CC(=O)O[C@H]1Cc2ccccc2N(C(N)=O)c2ccccc21 | 3 |
| Cc1cc(O)c2c(c1)C(=O)c1cccc(O[C@@H]3O[C@H](CO)[C@@H](O)[C@H](O)[C@H]3O)c1C2=O | -8 |
| COc1ncnc(NS(=O)(=O)c2ccc(N)cc2)c1OC | -4 |
| O=C1CN2Cc3c(ccc(Cl)c3Cl)N=C2N1 | -1 |
| COc1cc2c(c(OC)c1OC)-c1c(cc3c(c1O)OCO3)C[C@H](C)[C@@H](C)C2 | 17 |
| NCC[C@H](N)C(=O)O | 35 |
| CC(C)(O[C@@H]1O[C@H](CO)[C@@H](O)[C@H](O)[C@H]1O)[C@@H]1CC[C@](O)(CO)[C@H]2CC(=O)[C@@](C)(O)[C@@H]2C1 | 0 |
| CCCNC(C)C(=O)Nc1c(C)csc1C(=O)OC (stereo not drawn) | -7 |
| CC(C)(O)[C@@H]1CC[C@](C)([C@H]2[C@@H](O)C[C@@]3(C)[C@@H]4C[C@H](O)[C@H]5C(C)(C)[C@@H](O)CC[C@]5(C)C4=CC[C@]23C)O1 | -1 |
| O=C(O)c1ccc[nH]1 | 1 |
| C=CC1=C(C(=O)O)N2C(=O)[C@@H](NC(=O)/C(=N\O)c3csc(N)n3)[C@H]2SC1 | -5 |
| O=C(O)C(O)c1cccc(O)c1 (stereo not drawn) | -26 |
| CC(=O)N[C@@H](Cc1cnc[nH]1)C(=O)O | -7 |
| C[C@]12CC[C@@H]3c4ccc(OC(=O)c5ccccc5)cc4CC[C@H]3[C@@H]1CC[C@@H]2O | 7 |
| C=CCOC(Cn1ccnc1)c1ccc(Cl)cc1Cl (stereo not drawn) | -29 |

Sample 2 — observed: enzyme activity; action: inhibitor; tested at: 0.5 µM; baseline: control
Target: Inhibitor of nuclear factor kappa-B kinase subunit alpha (CHUK, Homo sapiens, UniProt O15111)
Sequence of UniProt O15111 (whole entry, looked up): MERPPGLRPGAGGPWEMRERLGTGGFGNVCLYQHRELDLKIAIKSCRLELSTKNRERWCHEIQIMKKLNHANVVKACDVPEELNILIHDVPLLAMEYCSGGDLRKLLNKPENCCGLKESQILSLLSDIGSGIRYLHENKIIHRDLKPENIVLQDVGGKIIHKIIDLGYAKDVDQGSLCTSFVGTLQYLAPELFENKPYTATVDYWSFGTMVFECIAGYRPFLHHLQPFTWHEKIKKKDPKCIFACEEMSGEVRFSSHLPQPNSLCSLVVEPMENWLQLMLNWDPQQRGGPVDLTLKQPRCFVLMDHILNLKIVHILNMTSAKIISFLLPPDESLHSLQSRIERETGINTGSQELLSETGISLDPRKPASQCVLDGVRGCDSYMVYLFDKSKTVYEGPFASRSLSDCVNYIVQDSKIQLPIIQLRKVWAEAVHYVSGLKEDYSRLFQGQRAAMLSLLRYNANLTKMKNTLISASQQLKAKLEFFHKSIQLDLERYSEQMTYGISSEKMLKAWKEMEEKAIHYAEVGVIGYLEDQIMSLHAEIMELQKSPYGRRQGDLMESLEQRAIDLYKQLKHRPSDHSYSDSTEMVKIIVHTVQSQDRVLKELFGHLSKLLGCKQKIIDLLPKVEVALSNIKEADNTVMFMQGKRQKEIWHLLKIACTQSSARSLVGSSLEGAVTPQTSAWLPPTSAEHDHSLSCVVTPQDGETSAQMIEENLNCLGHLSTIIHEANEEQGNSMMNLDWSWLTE
| Compound | remaining activity |
| --- | --- |
| COc1cc2ncnc(Nc3ccc(O)c(Br)c3)c2cc1OC | 107% |
| COc1cc2c(cc1OC)-c1[nH]nc(Nc3cccc(F)c3)c1C2 | 91.4% |
| Cc1nc2cc3nc(-c4cccs4)cnc3cc2n1C | 96.2% |
| c1ccc(-c2cnc(Nc3ccc(OCCN4CCCC4)cc3)s2)cc1 | 93.3% |
| CCN(CC)C(=O)c1ccc(Nc2nc(OCC3CCCCC3)c3[nH]cnc3n2)cc1 | 103% |
| Cn1nc2c3c(cccc31)C(=O)c1ccccc1-2 | 97% |
| O=C(NC(NC(=S)Nc1ccc(F)c([N+](=O)[O-])c1)C(Cl)(Cl)Cl)C(c1ccccc1)c1ccccc1 (stereo not drawn) | 91.5% |
| O=c1cc(-c2cccc3c2Sc2ccccc2S3)oc(N2CCOCC2)c1 | 87.4% |
| CN([C@@H](Cc1ccc(OS(=O)(=O)c2cccc3cnccc23)cc1)C(=O)N1CCN(c2ccccc2)CC1)S(=O)(=O)c1cccc2cnccc12 | 93.4% |
| N#Cc1c(NC(=O)c2cccc3ccccc23)sc2c1CCCC2 | 99.6% |
| CN(C)C[C@H]1CCn2c(c(C3=C(c4cn(C)c5ccccc45)C(=O)NC3=O)c3ccccc32)C1 | 103% |
| CCN(CC)CCNC(=O)c1c(C)[nH]c(/C=C2\C(=O)Nc3ccc(Cl)cc32)c1C | 102% |
| CCOc1nc(NC(=O)Cc2cc(OC)ccc2OC)cc(N)c1C#N | 96.1% |
| Nc1cccc(-c2cc3c(Oc4cccc(O)c4)ncnc3[nH]2)c1 | 102% |
| Cc1cn(-c2cc(NC(=O)c3ccc(C)c(Nc4nccc(-c5cccnc5)n4)c3)cc(C(F)(F)F)c2)cn1 | 98.7% |
| O=C1C(Cl)=C(N2C(=O)CCC2=O)C(=O)c2ccccc21 | 101% |
| O=C1c2ccccc2-c2n[nH]c3cccc1c23 | 111% |
| COc1cc2ncnc(Nc3cccc(Cl)c3)c2cc1OC | 103% |
| CCN(CC)CCNC(=O)c1c(C)[nH]c(/C=C2\C(=O)Nc3ccc(F)cc32)c1C | 92.4% |
| O=C(Nc1cccc(Nc2nccc(Nc3cccc(C(F)(F)F)c3)n2)c1)C1CC1 | 95.7% |
| Cc1cc2ncc(-c3ccccc3)nc2cc1C | 86.9% |
| N#C/C(=C\c1ccc(O)c(O)c1)C(=O)NCc1ccccc1 | 103% |
| c1ccc(-c2[nH]ncc2-c2ccnc3ccccc23)nc1 | 94.2% |
| Ic1cccc(CSc2nnc(-c3ccncc3)o2)c1 | 96.5% |
| C[C@@H]1CCN(C(=O)CC#N)C[C@@H]1N(C)c1ncnc2[nH]ccc12 | 95% |

Sample 3 — observed: RNA clamping; technique: fluorescence polarization; tested at: concentration not given; together with: FAM-labelled poly r(AG)8 RNA
Target: Eukaryotic initiation factor 4A-III (Homo sapiens, UniProt P38919)
Sequence of UniProt P38919 (whole entry, looked up): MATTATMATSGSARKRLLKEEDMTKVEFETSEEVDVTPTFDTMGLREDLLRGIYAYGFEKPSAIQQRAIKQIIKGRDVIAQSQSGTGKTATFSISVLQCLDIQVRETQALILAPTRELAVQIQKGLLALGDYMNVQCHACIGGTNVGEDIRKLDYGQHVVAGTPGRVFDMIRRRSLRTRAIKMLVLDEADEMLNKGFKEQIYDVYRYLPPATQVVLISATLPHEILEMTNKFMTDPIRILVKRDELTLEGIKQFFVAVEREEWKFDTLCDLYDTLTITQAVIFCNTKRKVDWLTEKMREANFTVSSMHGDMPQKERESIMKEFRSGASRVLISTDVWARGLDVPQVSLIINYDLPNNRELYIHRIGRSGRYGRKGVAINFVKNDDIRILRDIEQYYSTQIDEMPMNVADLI
| Compound | fluorescence polarization change |
| --- | --- |
| CONC(=O)[C@H]1[C@@H](O)[C@@]2(O)c3c(OC)cc(F)cc3O[C@@]2(c2ccc(Br)cc2)[C@@H]1c1ccccc1 | 60.3 mP |
| COc1ccc([C@@]23Oc4cc(OC)cc(OC)c4[C@]2(O)[C@H](O)[C@H](C(=O)c2oc4ccccc4c2C)[C@H]3c2ccccc2)cc1 | 2.8 mP |
| CCCN[C@@]12C(=O)[C@H](C(=O)N(C)C)[C@@H](c3ccccc3)[C@]1(c1ccc(OC)cc1)Oc1cc(OC)cc(OC)c12 | 1.3 mP |
| COc1ccc([C@@]23Oc4cc(OC)c(Cl)c(OC)c4[C@]2(O)c2nc4n(c(=O)c2[C@H]3c2ccccc2)CCC4)cc1 | 13.2 mP |
| COc1ccc([C@]23Oc4cc(OC)cc(OC)c4[C@](O)([C@H](C(=O)OCc4ccccc4)[C@H]2c2ccccc2)[C@@H]3O)cc1 | -8.9 mP |
| COc1cc(OC)c2c(c1)O[C@@]1(c3ccc(OC)c(O)c3)[C@H](c3ccccc3)[C@@H](C(=O)N(C)OC)[C@@H](O)[C@@]21O | 26.1 mP |
| C#CCOc1cc(OC)c2c(c1)O[C@@]1(c3ccc(OC)cc3)[C@H](c3ccccc3)c3c(nc(-c4ccccc4)[nH]c3=O)[C@@]21O | 0.3 mP |
| COc1ccc([C@@]23Oc4cc(O)cc(OC)c4[C@]2(O)[C@H](O)[C@H](C(=O)N(C)OC)[C@H]3c2ccccc2)cc1 | -0.3 mP |
| COc1ccc([C@@]23Oc4cc(OC)cc(OC)c4[C@]2(O)c2nc(C4CC4)[nH]c(=O)c2[C@H]3c2ccccc2)cc1 | 25.2 mP and 34.8 mP and 27.8 mP |
| COC(=O)[C@@H]1[C@@H](c2ccccc2)[C@]2(c3ccc(OC)cc3)Oc3cc(OC)cc(OC)c3[C@@]23NC(c2ccc(OC)cc2)=N[C@@]13O | 9.6 mP |
| CCCC1=N[C@@]2(O)[C@H](C(=O)OC)[C@@H](c3ccccc3)[C@]3(c4ccc(OC)cc4)Oc4cc(OC)cc(OC)c4[C@]23N1 | 31.5 mP |
| CCCc1ccc(C(=O)[C@H]2[C@@H](O)[C@@]3(O)c4c(OC)cc(OC)cc4O[C@@]3(c3ccc(OC)cc3)[C@@H]2c2ccccc2)o1 | 6.4 mP |
| COc1ccc([C@@]23Oc4cc(OC)cc(OC)c4[C@]2(O)C2=NNC(=O)C2=C3c2ccccc2)cc1 | -2.8 mP |
| COC(=O)[C@@H]1[C@@H](c2ccccc2)[C@]2(c3ccc(OC)cc3)Oc3cc(OC)cc(OC)c3[C@@]23N2CCCC2=N[C@@]13O | 9.4 mP |
| COc1ccc([C@@]23Oc4cc(OC)cc(OC)c4[C@]2(O)c2nc(-c4ccc(C)cc4)[nH]c(=O)c2[C@H]3c2ccccc2)cc1 | 5.4 mP and 20.7 mP |
| COC(=O)[C@H]1[C@@H](O)[C@@]2(O)c3c(OC)cc(O)cc3O[C@@]2(c2ccc(Br)cc2)[C@@H]1c1ccccc1 | 7.3 mP and 33 mP |

Sample 4 — observed: ligand displacement; tested at: 10 µM
Target: D(1A) dopamine receptor (DRD1, Homo sapiens, UniProt P21728)
Sequence of UniProt P21728 (whole entry, looked up): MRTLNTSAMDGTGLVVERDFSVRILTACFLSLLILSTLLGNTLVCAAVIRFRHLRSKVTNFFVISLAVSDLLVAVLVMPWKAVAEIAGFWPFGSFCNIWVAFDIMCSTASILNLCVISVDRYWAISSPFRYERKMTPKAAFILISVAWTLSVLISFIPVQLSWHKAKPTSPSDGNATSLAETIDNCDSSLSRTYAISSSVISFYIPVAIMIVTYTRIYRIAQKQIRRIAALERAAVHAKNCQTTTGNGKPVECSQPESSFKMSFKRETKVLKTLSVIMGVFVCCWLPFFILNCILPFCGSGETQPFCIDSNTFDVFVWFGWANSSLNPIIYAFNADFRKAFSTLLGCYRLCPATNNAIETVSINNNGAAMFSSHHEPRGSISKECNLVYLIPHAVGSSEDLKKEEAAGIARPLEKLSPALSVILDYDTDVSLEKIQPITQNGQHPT
| SMILES | inhibition [%] |
| --- | --- |
| COc1cc(N[C@@H]2CCCC[C@]2(O)C(F)(F)F)ccc1F | -13 |
| CS(=O)(=O)N1CCCC(NC(=O)[C@H](CCC2CCCCC2)NC(=O)c2ccc(CNC(=O)c3cnc4ccccn34)cc2)C1 (stereo partly drawn) | -8.61 |
| CC(=O)N1CCC(c2ccc(C(=O)NC3=NCCN3)cc2C(F)(F)F)CC1 | 4.8 |
| CNC(=O)Nc1ccc2c(c1)CC[C@]21OC(=O)N(CC(=O)N(Cc2ccc(F)cc2)[C@@H](C)C(F)(F)F)C1=O | 9.97 |
| CN1CCN(C(=O)C(C)(C)c2ccc(C(=O)Nc3cn4cc(-c5cc(C(C)(C)C)cc(C(C)(C)C)c5)ccc4n3)cc2)CC1 | 58.2 |
| CC(=O)Nc1ncc(CN2CCC[C@H](Cc3cc(C)nc(C)c3)C2)s1 | -19.7 |
| O=c1nc(-c2ccccn2)sc2ccccc12 | 3.24 |
| c1ccc(C2CCN(c3cnc4c(N5CCOCC5)nccn34)CC2)cc1 | 10.6 |
| C[C@H](c1ccc(F)cc1)N(Cc1cccc(C(=O)O)c1)C(=O)c1cnc2ccccc2c1 | -0.79 |
| Cc1cc(Nc2nccc(C)n2)cc(-c2cnc([C@@]3(O)CC[C@H](C(=O)O)C(C)(C)C3)s2)c1 | -7.4 |
| Nc1nc(NCc2ccccc2)nc(-c2ccccc2CO)n1 | 33.7 |
| C[C@@H](c1cccc(C#N)c1)n1cc(Cl)cc(C(N)=O)c1=N | -6.15 |
| O=C(N[C@H]1CCCCC/C=C\C2C[C@@]2(C(=O)O)NC(=O)[C@@H]2C[C@@H](Oc3ccncc3)CN2C1=O)OC1CCCC1 (stereo partly drawn) | -4.18 |
| CN(C)C(=O)c1sc2nc(N3CCC(S(C)(=O)=O)CC3)cc(C(F)(F)F)c2c1N | 1.22 |
| COc1ccc2cc(OCC3(C(=O)O)CN(C(=O)c4ccc(F)cc4)C3)ccc2c1 | -26.6 |
| Cc1ncc(-c2cc(Cl)ccc2F)cc1-n1c(=O)n(CC(N)=O)c2ccccc21 | -2.08 |
| CN([C@@H]1CCc2c(CC(=O)O)c3ccccc3n2C1)S(=O)(=O)c1ccc(F)cc1 | 12.3 |
| NS(=O)(=O)c1cc(NC(=O)Cc2ccccc2)ccc1Oc1cccc(Cl)c1 | 21.6 |
| CNC(=N)NCCC[C@H](NC(=O)[C@H](CC(C)C)NC(=O)NNC(=O)[C@H](Cc1ccccc1)NC(=O)[C@H](CO)NC(=O)[C@H](CC(N)=O)NC(=O)[C@@H](Cc1ccncc1)NC(=O)[C@H](N)Cc1ccc(O)cc1)C(=O)N[C@@H](Cc1ccccc1)C(N)=O | -7.58 |
| NC(=O)c1ccc2nc(-c3ccc(C4(N)CCC4)cc3)c(-c3ccccc3)n2n1 | -3.8 |
| COc1cc(C(=O)O)ncc1C#Cc1ccccc1NS(=O)(=O)c1cccc2c(N(C)C)ccnc12 | 17.8 |
| Cc1noc([C@H]2C[C@@H](c3ccc(C(F)(F)F)cc3)CN(C(=O)N3CCS(=O)(=O)C3)C2)n1 | 10.6 |
| CCc1ccccc1C(=O)Nc1n[nH]c2c(C)c(F)c(C3C(C#N)=C(C)N(C)C(C)=C3C#N)cc12 | 67.4 |
| CCC(F)(F)c1cc(N2CCC(S(C)(=O)=O)CC2)nc2sc(C(N)=O)c(N)c12 | 25.7 |
| CO[C@H]1CC[C@H](CNc2ccc(S(=O)(=O)NC(=O)c3ccc(N4CCN(CC5=C(c6ccc(Cl)cc6)CC(C)(C)CC5)CC4)cc3Oc3cnc4[nH]ccc4c3)cc2[N+](=O)[O-])CC1 | 28.2 |

Excerpt of the above (sample 2):
| Compound | remaining activity |
| --- | --- |
| O=c1cc(-c2cccc3c2Sc2ccccc2S3)oc(N2CCOCC2)c1 | 87.4% |
| Cc1cn(-c2cc(NC(=O)c3ccc(C)c(Nc4nccc(-c5cccnc5)n4)c3)cc(C(F)(F)F)c2)cn1 | 98.7% |
| Cn1nc2c3c(cccc31)C(=O)c1ccccc1-2 | 97% |
| CN([C@@H](Cc1ccc(OS(=O)(=O)c2cccc3cnccc23)cc1)C(=O)N1CCN(c2ccccc2)CC1)S(=O)(=O)c1cccc2cnccc12 | 93.4% |
| N#C/C(=C\c1ccc(O)c(O)c1)C(=O)NCc1ccccc1 | 103% |
| O=C1C(Cl)=C(N2C(=O)CCC2=O)C(=O)c2ccccc21 | 101% |
| COc1cc2ncnc(Nc3cccc(Cl)c3)c2cc1OC | 103% |
